Experimental data gathered from unrelated publications.
± marks the error that the study gave. Square brackets hold non-standard residues; d marks the D form. Where no end group is shown, it is not given here. Ends that are not written are not given here. The star is where a group is joined. * marks the point of attachment.
Form: peptide
DAXX: DAXX 55-144 (Homo sapiens, UniProt Q9UER7)
Chain of UniProt Q9UER7 (whole entry, looked up): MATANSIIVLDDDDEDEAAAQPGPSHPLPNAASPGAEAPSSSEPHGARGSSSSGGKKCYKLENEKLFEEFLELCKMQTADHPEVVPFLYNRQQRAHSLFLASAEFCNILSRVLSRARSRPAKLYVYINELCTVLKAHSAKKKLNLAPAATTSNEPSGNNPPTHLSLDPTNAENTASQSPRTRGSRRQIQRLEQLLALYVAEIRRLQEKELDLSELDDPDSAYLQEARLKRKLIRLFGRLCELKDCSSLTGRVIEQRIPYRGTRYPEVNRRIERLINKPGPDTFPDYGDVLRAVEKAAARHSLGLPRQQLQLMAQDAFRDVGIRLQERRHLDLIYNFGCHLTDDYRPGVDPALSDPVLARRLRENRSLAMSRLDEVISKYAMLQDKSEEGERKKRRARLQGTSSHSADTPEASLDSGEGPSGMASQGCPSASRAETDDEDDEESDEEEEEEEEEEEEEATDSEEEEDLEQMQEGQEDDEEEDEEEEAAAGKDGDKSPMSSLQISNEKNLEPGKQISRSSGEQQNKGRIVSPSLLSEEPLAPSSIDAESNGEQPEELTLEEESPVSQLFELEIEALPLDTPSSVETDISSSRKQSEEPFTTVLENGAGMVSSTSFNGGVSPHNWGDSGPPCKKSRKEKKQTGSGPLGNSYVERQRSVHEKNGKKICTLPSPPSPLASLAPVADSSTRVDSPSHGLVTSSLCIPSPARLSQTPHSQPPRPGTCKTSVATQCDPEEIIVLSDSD
MCM6 C721S: MCM6 708-821 C721S (Homo sapiens, UniProt Q14566)
Chain of UniProt P62258 (whole entry, looked up): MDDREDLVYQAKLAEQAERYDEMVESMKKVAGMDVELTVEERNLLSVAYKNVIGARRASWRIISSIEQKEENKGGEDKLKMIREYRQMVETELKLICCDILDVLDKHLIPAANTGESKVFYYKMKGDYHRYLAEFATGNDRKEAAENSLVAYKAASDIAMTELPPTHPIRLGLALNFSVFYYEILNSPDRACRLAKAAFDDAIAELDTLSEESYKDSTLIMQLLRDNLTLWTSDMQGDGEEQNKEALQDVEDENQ
Chain of UniProt P0ADV1 (whole entry, looked up): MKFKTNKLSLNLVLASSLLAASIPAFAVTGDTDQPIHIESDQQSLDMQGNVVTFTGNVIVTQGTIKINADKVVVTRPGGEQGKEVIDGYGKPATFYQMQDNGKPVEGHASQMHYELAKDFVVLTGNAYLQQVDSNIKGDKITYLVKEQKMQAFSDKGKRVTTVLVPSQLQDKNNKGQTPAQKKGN
Chain of UniProt P45481 (whole entry, looked up): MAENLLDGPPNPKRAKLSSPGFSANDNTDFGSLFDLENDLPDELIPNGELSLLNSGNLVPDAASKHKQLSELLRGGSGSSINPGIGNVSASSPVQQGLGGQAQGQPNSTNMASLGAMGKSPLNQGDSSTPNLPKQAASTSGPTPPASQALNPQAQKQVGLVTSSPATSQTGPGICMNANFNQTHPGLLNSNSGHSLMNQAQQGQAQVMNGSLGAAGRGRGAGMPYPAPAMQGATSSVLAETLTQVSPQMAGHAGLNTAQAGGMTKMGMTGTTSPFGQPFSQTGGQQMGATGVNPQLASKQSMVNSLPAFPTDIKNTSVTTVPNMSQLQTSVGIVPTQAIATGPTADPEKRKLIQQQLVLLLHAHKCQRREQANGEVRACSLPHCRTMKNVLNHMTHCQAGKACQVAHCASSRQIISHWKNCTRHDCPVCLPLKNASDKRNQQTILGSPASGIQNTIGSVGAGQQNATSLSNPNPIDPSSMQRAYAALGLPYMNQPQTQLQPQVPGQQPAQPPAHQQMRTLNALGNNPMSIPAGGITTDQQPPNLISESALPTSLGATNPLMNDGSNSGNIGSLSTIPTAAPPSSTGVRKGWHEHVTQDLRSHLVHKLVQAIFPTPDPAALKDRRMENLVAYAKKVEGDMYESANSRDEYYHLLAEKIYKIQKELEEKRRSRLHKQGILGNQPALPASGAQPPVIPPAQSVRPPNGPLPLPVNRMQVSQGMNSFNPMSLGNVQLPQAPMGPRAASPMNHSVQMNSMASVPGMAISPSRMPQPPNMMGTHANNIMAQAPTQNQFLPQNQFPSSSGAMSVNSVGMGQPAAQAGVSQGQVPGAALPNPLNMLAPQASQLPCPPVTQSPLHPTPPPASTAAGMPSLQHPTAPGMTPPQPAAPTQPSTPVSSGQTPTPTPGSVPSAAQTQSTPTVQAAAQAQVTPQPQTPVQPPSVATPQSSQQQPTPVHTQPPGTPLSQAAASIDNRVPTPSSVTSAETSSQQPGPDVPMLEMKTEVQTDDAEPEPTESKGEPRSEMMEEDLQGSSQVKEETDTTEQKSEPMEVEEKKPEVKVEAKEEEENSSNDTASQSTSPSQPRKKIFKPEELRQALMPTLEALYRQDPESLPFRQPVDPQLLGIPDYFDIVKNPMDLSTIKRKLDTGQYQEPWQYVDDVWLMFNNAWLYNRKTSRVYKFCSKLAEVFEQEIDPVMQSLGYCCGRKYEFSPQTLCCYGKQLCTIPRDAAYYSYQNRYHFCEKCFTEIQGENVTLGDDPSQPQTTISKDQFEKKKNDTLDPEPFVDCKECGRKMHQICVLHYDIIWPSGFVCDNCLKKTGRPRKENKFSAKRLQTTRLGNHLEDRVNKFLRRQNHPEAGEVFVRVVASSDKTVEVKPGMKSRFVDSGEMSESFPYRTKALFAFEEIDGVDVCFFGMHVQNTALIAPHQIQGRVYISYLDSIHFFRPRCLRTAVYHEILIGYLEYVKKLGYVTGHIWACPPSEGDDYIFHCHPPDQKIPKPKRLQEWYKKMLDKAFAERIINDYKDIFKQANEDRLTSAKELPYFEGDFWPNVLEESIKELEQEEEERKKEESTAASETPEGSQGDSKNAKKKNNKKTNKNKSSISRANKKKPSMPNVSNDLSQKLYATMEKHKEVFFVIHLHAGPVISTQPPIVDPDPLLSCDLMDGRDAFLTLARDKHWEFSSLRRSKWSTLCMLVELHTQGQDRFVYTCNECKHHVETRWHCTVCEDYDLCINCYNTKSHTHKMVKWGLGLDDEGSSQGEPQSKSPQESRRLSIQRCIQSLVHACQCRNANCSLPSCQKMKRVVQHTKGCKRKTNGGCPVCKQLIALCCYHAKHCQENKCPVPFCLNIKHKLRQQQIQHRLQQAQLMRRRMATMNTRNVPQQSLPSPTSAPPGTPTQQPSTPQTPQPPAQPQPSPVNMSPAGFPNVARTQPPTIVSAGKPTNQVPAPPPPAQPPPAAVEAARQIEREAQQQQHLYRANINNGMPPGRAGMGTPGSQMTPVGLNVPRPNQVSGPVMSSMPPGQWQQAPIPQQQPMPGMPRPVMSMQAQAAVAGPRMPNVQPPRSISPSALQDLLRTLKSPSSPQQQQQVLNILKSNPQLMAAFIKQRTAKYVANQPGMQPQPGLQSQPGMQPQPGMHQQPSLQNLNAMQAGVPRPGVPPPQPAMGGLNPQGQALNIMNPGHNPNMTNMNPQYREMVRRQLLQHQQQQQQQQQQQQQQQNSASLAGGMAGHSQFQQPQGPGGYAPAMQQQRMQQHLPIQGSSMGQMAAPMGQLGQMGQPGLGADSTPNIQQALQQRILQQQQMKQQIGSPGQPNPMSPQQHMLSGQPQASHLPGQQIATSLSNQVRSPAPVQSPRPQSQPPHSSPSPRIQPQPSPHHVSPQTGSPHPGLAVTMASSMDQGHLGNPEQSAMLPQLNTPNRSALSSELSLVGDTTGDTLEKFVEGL
Chain of UniProt P29590 (whole entry, unmodified, looked up): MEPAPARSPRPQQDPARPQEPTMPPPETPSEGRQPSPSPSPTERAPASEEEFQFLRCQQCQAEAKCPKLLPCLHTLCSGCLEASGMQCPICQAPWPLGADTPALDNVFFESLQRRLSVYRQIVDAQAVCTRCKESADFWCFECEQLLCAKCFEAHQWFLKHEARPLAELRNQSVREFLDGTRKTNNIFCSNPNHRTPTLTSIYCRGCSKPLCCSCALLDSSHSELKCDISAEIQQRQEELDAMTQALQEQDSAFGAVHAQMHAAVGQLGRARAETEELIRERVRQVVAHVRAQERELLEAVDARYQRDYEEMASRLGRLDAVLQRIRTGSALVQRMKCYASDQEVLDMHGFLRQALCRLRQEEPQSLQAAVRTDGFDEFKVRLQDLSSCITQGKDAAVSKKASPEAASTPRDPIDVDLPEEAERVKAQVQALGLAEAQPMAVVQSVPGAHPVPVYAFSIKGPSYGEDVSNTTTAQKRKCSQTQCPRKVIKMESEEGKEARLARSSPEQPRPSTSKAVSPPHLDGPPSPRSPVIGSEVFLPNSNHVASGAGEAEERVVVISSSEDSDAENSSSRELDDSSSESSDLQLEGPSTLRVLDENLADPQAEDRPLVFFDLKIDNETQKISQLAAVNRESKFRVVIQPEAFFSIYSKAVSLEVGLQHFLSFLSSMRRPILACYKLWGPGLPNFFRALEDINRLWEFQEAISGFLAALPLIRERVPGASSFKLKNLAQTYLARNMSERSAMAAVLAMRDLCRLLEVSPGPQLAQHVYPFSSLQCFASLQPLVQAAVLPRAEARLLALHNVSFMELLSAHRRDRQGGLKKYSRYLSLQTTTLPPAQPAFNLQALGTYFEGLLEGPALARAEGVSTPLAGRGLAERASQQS
Chain of UniProt Q8C669 (whole entry, looked up): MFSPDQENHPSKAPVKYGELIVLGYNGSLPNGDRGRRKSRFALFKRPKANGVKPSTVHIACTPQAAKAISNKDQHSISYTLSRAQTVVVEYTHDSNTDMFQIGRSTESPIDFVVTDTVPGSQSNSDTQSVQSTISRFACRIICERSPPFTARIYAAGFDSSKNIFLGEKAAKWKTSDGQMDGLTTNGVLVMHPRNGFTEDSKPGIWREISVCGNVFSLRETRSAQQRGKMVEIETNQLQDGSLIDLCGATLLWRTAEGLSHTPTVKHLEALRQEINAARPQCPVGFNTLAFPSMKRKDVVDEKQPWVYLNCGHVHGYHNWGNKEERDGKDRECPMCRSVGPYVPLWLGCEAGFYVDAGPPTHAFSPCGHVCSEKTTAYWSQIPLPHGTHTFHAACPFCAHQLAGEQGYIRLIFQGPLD

Molecule	partner	test	setting	Kd [µM]
NDPENRIAKKMLLEEIKANLSSDEDG (ATRX 1265-1290 (Homo sapiens, UniProt P46100); sequence looked up)	DAXX	ITC	pH 7.5, 25 °C	1.23
SRHSCIFPGQYNPSFISDESRRRDYF (HEG1 1356-1381 (Homo sapiens, UniProt Q9ULI3); sequence looked up)	KRIT1 417-736 (Homo sapiens, UniProt O00522)	ITC	–	1.2 ± 0.14
{FITC}-WLSSDVICI (BLM 230-238 (Homo sapiens, UniProt P54132); N-terminal FITC; FITC = O=C1OC2(c3ccc(O)cc3Oc3cc(O)ccc32)c2ccc(NC(=S)*)cc21; sequence looked up)	MCM6 C721S	fluorescence polarisation	pH 6.5, NaCl 50 mM	83.2 ± 3.7
PVTVDDDDDDNDPENRIAKKMLLEEIKANLSSDED (ATRX 1255-1289 (Homo sapiens, UniProt P46100); sequence looked up)	DAXX	ITC	pH 7.5, 25 °C	0.16
GSKKPVPIIYANRRTGKAQRM (Podisus maculiventris peptide mature C11A/C18A (Podisus maculiventris, UniProt P55788); sequence looked up)	lptA 28-158 (Escherichia coli, UniProt P0ADV1)	BLI	25 °C, steady-state fit	0.047
PVTVDDDDDDNDPENRIAKKMLLEEIKANL (ATRX 1255-1284 (Homo sapiens, UniProt P46100); sequence looked up)	DAXX	ITC	pH 7.5, 25 °C	0.39
ARTKQTARKSTGY (histone H3 2-13 (UniProt P68431))	PHF12 48-116 (Homo sapiens, UniProt Q96QT6)	NMR titration	pH 7.0, 25 °C, NaCl 50 mM	208 ± 14
MWPHRVTAAK (peptide; fluorescein)	MAP1LC3A (Homo sapiens, UniProt Q9H492)	fluorescence polarisation	–	1.12 ± 0.356
VPCIEFDDDDYDTDF (BLM 286-300 (Homo sapiens, UniProt P54132); FITC label; sequence looked up)	MCM6 C721S	fluorescence polarisation	pH 6.5, NaCl 50 mM	69.8 ± 4.5
RRRAV[pS]MDNSN (FOXO3 248-258 (human); pS253; pS = N[C@@H](COP(=O)(O)O)C(=O)O)	YWHAE (Homo sapiens, UniProt P62258)	ITC	pH 7.5	6.7 ± 1.8
GSHMSNVIDTDFIDEEVLMSLVIEMGLDRIKE (CITED2 residues 216-242 (Homo sapiens, UniProt Q99967))	Crebbp 340-439 (Mus musculus, UniProt P45481)	competition with ligand, fluorescence polarisation	pH 6.8, 298 K, NaCl 50 mM, apparent	1.1
GSFGPDLRAGD (peptide)	PPIB fragment (Homo sapiens)	NMR titration	apparent, cis and trans isomers	171 ± 5
RRRRRRRC / CKNYKKTEV (CRIPT C-terminal PBM; cyclic; disulfide to poly-arginine)	DLG4 309-422 (Homo sapiens, UniProt P78352)	SPR	pH 7.5, NaCl 100 mM	0.191
{FITC}-GFID[pS]D[pT]DVEEE-NH2 (peptide; N-terminal FITC, pS5, pT7, C-terminal amide; FITC = O=C1OC2(c3ccc(O)cc3Oc3cc(O)ccc32)c2ccc(NC(=S)*)cc21; pS = N[C@@H](COP(=O)(O)O)C(=O)O; pT = C[C@@H](OP(=O)(O)O)[C@H](N)C(=O)O)	TOPBP1 641-746 K686E/K687E (Homo sapiens, UniProt Q92547)	fluorescence polarisation	pH 7.5, NaCl 150 mM	130 ± 20
DDDDNDPENRIAKKMLLEEIKANLSSDEDG (ATRX 1261-1290 (Homo sapiens, UniProt P46100); sequence looked up)	DAXX	ITC	pH 7.5, 25 °C	0.24
SGAGEAEERVVVIDDDEDDDAENSSSRY (PML 547-573 S560D/S561D/S562D/S565D (Homo sapiens, UniProt P29590))	SUMO2 2-93 C48A (Homo sapiens, UniProt P61956)	ITC	pH 7.4, 25 °C, NaCl 50 mM, without zinc or calcium	12 ± 1
fluorescein-YSSAS[pT]FLSP-NH2 (IRAK1 residues 137-145 (Homo sapiens, UniProt P51617); also: fluorescein: FITC or 5,6-FAM; pT141, C-terminal amide, N-terminal fluorescein; pT = C[C@@H](OP(=O)(O)O)[C@H](N)C(=O)O)	Peli1 2-287 (Mus musculus, UniProt Q8C669)	fluorescence polarisation	25 °C	1.7

Excerpt of the above:
Molecule	partner	test	setting	Kd [µM]
SGAGEAEERVVVIDDDEDDDAENSSSRY (PML 547-573 S560D/S561D/S562D/S565D (Homo sapiens, UniProt P29590))	SUMO2 2-93 C48A (Homo sapiens, UniProt P61956)	ITC	pH 7.4, 25 °C, NaCl 50 mM, without zinc or calcium	12 ± 1
fluorescein-YSSAS[pT]FLSP-NH2 (IRAK1 residues 137-145 (Homo sapiens, UniProt P51617); also: fluorescein: FITC or 5,6-FAM; pT141, C-terminal amide, N-terminal fluorescein; pT = C[C@@H](OP(=O)(O)O)[C@H](N)C(=O)O)	Peli1 2-287 (Mus musculus, UniProt Q8C669)	fluorescence polarisation	25 °C	1.7
